Published values collected from several papers.
Every numbered part comes from another study and shows a few of its results, in no order. Substitutions count along the parent as printed.
UniProt Q9H422, sequence (whole entry, looked up): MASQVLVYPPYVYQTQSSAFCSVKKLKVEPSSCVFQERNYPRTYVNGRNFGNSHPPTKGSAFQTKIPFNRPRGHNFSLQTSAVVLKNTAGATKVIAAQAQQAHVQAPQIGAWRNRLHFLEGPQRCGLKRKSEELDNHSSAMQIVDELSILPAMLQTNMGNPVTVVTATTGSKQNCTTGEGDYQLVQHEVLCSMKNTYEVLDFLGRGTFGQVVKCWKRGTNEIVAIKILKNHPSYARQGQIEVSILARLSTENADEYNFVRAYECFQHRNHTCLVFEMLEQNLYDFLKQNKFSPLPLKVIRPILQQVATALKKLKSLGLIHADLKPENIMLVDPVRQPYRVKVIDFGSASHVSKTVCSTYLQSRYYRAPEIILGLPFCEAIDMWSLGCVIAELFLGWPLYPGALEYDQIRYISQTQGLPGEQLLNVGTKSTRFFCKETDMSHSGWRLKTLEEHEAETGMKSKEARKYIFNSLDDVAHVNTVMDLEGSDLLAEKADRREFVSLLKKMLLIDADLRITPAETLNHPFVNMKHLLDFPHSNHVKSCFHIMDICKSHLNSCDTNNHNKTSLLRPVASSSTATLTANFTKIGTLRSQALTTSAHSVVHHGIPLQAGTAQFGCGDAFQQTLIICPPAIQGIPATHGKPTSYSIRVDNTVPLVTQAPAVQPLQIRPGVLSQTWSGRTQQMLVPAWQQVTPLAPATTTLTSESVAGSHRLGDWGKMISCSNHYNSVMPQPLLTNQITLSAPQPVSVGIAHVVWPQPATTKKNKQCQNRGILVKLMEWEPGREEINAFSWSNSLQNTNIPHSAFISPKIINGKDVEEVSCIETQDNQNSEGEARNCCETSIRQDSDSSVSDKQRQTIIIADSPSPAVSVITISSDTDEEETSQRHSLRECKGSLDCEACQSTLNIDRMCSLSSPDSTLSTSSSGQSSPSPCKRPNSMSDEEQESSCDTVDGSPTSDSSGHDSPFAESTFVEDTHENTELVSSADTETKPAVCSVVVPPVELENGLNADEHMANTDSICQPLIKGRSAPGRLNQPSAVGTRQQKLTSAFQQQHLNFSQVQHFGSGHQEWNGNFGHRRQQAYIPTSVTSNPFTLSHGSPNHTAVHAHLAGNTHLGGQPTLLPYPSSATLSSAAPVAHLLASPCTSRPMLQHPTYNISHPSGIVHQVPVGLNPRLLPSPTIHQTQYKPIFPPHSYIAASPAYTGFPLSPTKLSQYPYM

Set 1
Target: Histone acetyltransferase KAT6A, both winged helices, GST fusion (KAT6A, Homo sapiens, UniProt Q92794, residues 1-181)
Method: protein binding microarray
Molecule type: double-stranded DNA, one strand shown
Medium: in vitro
Tested at: not given
Notes: 8-mer, flanks averaged, mean of 2 arrays, mostly near background
Baseline: not given
Reading: higher = stronger binding
Construct (chain): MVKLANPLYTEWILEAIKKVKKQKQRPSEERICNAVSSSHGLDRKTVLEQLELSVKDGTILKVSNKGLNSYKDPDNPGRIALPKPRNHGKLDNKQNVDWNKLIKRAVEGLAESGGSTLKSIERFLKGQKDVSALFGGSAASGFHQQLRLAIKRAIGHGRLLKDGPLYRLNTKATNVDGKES
| Sequence | E-score |
| --- | --- |
| GTCAACTA | -0.0831 |
| CGCAGGCG | 0.218 |
| CTCTGGAA | -0.0622 |
| CAGCTTGC | 0.0626 |
| ATCGATGC | 0.0293 |
| CTCAAGCA | -0.344 |
| ACGAGGGG | -0.209 |
| ACTTGCTG | -0.147 |

Set 2
Target: ABI1, truncated, D143A, DHFR fusion (Arabidopsis thaliana)
Method: DHFR PCA, deep sequencing
Medium: yeast
Notes: methotrexate growth selection, single substitutions
With: (+)-ABA 0.39 µM
Baseline: wild-type fitted maximum
Reading: higher = stronger binding
Starting sequence: PYL1, truncated, DHFR fusion (Arabidopsis thaliana); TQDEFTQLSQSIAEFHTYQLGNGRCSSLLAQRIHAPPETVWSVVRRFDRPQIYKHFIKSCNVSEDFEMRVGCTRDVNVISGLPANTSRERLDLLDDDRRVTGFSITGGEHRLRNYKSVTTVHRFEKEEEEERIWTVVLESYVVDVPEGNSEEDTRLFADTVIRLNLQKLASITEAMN; partner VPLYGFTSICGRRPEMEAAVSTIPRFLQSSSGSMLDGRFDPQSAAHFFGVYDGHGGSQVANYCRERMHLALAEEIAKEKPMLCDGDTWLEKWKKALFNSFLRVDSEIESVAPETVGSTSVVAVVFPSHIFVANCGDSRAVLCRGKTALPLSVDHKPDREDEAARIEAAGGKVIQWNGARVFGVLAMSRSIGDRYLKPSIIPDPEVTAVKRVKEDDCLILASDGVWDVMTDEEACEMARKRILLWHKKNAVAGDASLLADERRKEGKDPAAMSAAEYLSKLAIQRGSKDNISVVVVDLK
| Variant | relative binding score [%] |
| --- | --- |
| G107Y | 1.85 |
| E125M | 45 |
| V118G | -12.1 |
| D95N | 1.08 |
| V76I | 69.4 |
| R123C | 27.7 |
| A84V | 23.6 |
| E130T | 46.9 |

Set 3
Target: TAR DNA-binding protein 43, full length, His tag (TARDBP, Homo sapiens, UniProt Q13148, residues 1-414)
Method: RNA Bind-n-Seq
Molecule type: RNA
Medium: in vitro
Tested at: 20 nM
Notes: 6-mer, flanks averaged, single round
With: 150 mM KCl
Baseline: input library
Reading: higher = stronger binding
| Sequence | 6-mer enrichment (R) |
| --- | --- |
| AUGCGG | 1.73 |
| AUAUGG | 0.95 |
| CUCCCA | 0.669 |
| GAAGGC | 1.43 |
| UUUGAG | 0.883 |
| AACCAG | 0.743 |
| UUUUAC | 0.644 |
| CCGGAC | 0.944 |

Further values, each from its own experiment
| SMILES | target | read-out | action | tested at | baseline | measurement | value |
| --- | --- | --- | --- | --- | --- | --- | --- |
| Nc1nc(Nc2ccc(S(N)(=O)=O)cc2)nn1C(=O)c1c(F)cccc1F | Homeodomain-interacting protein kinase 3 (HIPK3, Homo sapiens, UniProt Q9H422) | enzyme activity | inhibitor | 0.5 µM | control | remaining activity | 91.2% |

A few entries again (set 3):
| Sequence | 6-mer enrichment (R) |
| --- | --- |
| AUAUGG | 0.95 |
| CUCCCA | 0.669 |
| GAAGGC | 1.43 |
